# Published values collected from several papers.
# Every numbered part comes from another study and shows a few of its results, in no order. Values joined by “and” are separate records of one study, mostly repeats; a detail may differ. Positions count from the first letter of the parent shown.
# Chain of UniProt P41143 (whole entry, looked up): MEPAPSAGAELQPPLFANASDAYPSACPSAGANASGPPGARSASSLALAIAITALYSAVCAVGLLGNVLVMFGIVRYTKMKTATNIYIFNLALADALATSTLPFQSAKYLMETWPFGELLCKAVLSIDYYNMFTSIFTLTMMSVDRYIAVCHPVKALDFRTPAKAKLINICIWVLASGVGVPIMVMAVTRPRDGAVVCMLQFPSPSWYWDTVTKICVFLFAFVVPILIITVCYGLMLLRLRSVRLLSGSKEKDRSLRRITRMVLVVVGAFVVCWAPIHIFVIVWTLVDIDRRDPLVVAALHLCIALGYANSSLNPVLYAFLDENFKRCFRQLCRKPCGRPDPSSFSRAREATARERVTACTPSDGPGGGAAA

# Block 1 — read-out: peptide-MHC binding; molecule type: peptide; tested at: concentration not given
# Target: HLA class I histocompatibility antigen, A alpha chain, allele A*80:01 (Homo sapiens, UniProt P04439)
Molecule,binding
ILLARLFLY,active
VVDALRNIY,inactive
YDRLASTVI,inactive
YLQYSISTA,inactive
WDAYIPHYV,inactive
NRDGDSYYY,inactive
ISEMLSKEY,inactive
FTDISMSLY,inactive

# Block 2 — target: CCNB3, cyclin fold, Cln2 fusion (human); method: yeast growth competition, sequencing; matrix: yeast; notes: strong parent motif; reference: not given; reading: higher = stronger binding
# Parent: viral docking peptide; YKVKRRLVFGADD; partner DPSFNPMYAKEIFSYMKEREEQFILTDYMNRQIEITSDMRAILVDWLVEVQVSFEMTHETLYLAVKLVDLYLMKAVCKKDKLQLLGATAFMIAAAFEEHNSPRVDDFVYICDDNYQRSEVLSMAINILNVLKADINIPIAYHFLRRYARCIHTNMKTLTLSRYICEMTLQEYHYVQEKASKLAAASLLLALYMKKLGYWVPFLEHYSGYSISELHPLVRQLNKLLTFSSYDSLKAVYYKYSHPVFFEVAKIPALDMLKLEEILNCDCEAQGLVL
Change,normalised enrichment score
YKVQRRLVFGADD [K4Q],0.513
YKVKRREVFGADD [L7E],0.0212
YKVKRRLVFKADD [G10K],1.3
YKVKRRLVFLADD [G10L],1.09
YKVKRRLVFGARD [D12R],1.05
YKVKRWLVFGADD [R6W],0.243
YKVKRRFVFGADD [L7F],0.362
YKVKRRLVFGAKD [D12K],1.87

# Other studies, line by line
Structure (SMILES),tested on,assay,system,setting,inhibition
CN(C)C(=O)Cn1cc(-c2nc(C3(c4ccc(-c5cnc(N)nc5)cc4)CC3)no2)cn1,"OPRD1 (Homo sapiens, UniProt P41143)",cell-free assay,,10 µM,-5.53%
CCOc1ccc(Nc2c3c(nc4ccccc24)CCC3)cc1,Leishmania donovani,parasite growth,"DD8 amphotericin B-resistant, intracellular amastigotes",0.04 µM,2% and 1% and 5%

# For quick reference, copied from above (block 2):
Change,normalised enrichment score
YKVQRRLVFGADD [K4Q],0.513
